Assay results from different studies.
Compare with care: the assays were run in different laboratories. ± marks the error that the study gave.

Cc1cc(C)n(CCN(CCN)CCCCCCNC(=O)[C@@H](N)Cc2c[nH]c3ccccc23)n1.[99Tc+].[C-]#[O+].[C-]#[O+].[C-]#[O+] — tissue uptake (BALB/c nude mice A549 xenograft, tumor; intravenous, 15 min): 1.6 ± 0.68 %ID/g
COc1ccc2c(c1)C(C)(C)C(/C=C/C1=C(Oc3ccc(C(=O)NCCCCOc4cc(CN(Cc5ccccn5)Cc5ccccn5)cc(CN(Cc5ccccn5)Cc5ccccn5)c4)cc3)C(=C/C=C3/N(CCCCS(=O)(=O)[O-])c4ccc(OC)cc4C3(C)C)CCC1)=[N+]2CCCCS(=O)(=O)[O-].O=[N+]([O-])[O-].O=[N+]([O-])[O-].[99Tc+].[C-]#[O+].[C-]#[O+].[C-]#[O+].[Zn+2] — tissue uptake (BALB/c mice, S. aureus myositis, bone; 12 h post-injection): 0.86 %ID/g
O=C(NCC1OC2CCC=CCCC2O1)c1ccc(COCCOCCOCC[18F])cc1 (stereo not shown) — tissue uptake (healthy female BALB/c nude mice, lungs; intravenous, 7.4 MBq per mouse, 30 min): 2.4 ± 0.1 %ID/g
CCCC[C@H](NC(=O)CCCCCCCNC(=O)CN1CCN(CC(=O)O)CCN(CC(=O)O)CC1)C(=O)N[C@H]1CC(=O)NCCCC[C@@H](C(N)=O)NC(=O)[C@H](Cc2c[nH]c3ccccc23)NC(=O)[C@H](CCCNC(=N)N)NC(=O)[C@@H](Cc2ccccc2)NC(=O)[C@H](Cc2c[nH]cn2)NC1=O [fluorine-18 labelled] — tissue uptake (C57 mice, B16/F10 melanoma, intestines; intravenous, 0.37 MBq, 0.5 h): 1.74 ± 0.44 %ID
COc1ccc(Nc2nc(Nc3ccc(OCCOCCOCC[18F])cc3)ncc2Br)cc1 — tissue uptake (ICR mice, S180 tumour, stomach; intravenous, 370 kBq, 15 min): 1.44 ± 0.06 %ID
CCCC[C@H](NC(=O)COCCOCCNC(=O)CN1CCN(CC(=O)O)CCN(CC(=O)O)CC1)C(=O)N[C@H]1CC(=O)NCCCC[C@@H](C(N)=O)NC(=O)[C@H](Cc2c[nH]c3ccccc23)NC(=O)[C@H](CCCNC(=N)N)NC(=O)[C@@H](Cc2ccccc2)NC(=O)[C@H](Cc2c[nH]cn2)NC1=O [fluorine-18 labelled] — tissue uptake (C57 mice, B16/F10 melanoma, intestines; intravenous, 0.37 MBq, 1 h): 0.86 ± 0.26 %ID
COc1ccc(Nc2nc(Nc3ccc(OCCOCC[18F])cc3)ncc2Br)cc1 — tissue uptake (ICR mice, S180 tumour, stomach; intravenous, 370 kBq, 120 min): 0.27 ± 0.03 %ID
CC(C)C[C@H](NC(=O)[C@@H](CCCCNC(=O)[C@@H](Cc1ccccc1)NC(=O)CCCCCCCNC(=O)CN1CCN(CC(=O)O)CCN(CC(=O)O)CCN(CC(=O)O)CC1)NC(=O)[C@H](Cc1ccc(O)cc1)NC(=O)[C@H](CO)NC(=O)[C@H](Cc1c[nH]c2ccccc12)NC(=O)[C@H](Cc1c[nH]cn1)NC(=O)[C@@H]1CCC(=O)N1)C(=O)N[C@@H](CCCNC(=N)N)C(=O)N1CCC[C@H]1C(=O)NCC(N)=O [indium-111 labelled] — tissue uptake (male athymic nude mice, DU-145 prostate cancer xenograft, muscle; intravenous, dose not given, 1 h, added: unlabeled blocking peptide 10 µg): 0.15 ± 0.04 %ID/g
Cc1cc(C)n(CCN(CCN)CCCCCCNC(=O)[C@@H](N)Cc2c[nH]cn2)n1.[99Tc+].[C-]#[O+].[C-]#[O+].[C-]#[O+] — tissue uptake (BALB/c nude mice, A549 xenograft, liver; intravenous, 4 h): 13.1 ± 1.33 %IA/g
CCCC[C@H](NC(=O)CNC(=O)CNC(=O)[C@H](CCCCNC(=O)[C@H](CC(N)=O)NC(=O)C(C)c1ccc(CC(C)C)cc1)NC(=O)CN1CCN(CC(=O)O)CCN(CC(=O)O)CCN(CC(=O)O)CC1)C(=O)N[C@H]1CC(=O)NCCCC[C@@H](C(N)=O)NC(=O)[C@H](Cc2c[nH]c3ccccc23)NC(=O)[C@H](CCCNC(=N)N)NC(=O)[C@@H](Cc2ccccc2)NC(=O)[C@H](Cc2c[nH]cn2)NC1=O (stereo partly shown) [lutetium-177 labelled] — tissue uptake (C57 mice, tumour-bearing, tumor; 2 h): 25.5 ± 1.31 %ID/g
O=C([O-])CN1CCN(CC(=O)[O-])CCN(CC(=O)NC[C@H]2CC[C@H](C(=O)N[C@H](Cc3cnc4ccccc4c3)C(=O)NCCCC[C@H](NC(=O)N[C@@H](CCC(=O)O)C(=O)O)C(=O)O)CC2)CCN(CC(=O)[O-])CC1.[64Cu+2] — tissue uptake (ex vivo gamma counting; 22Rv1 tumour-bearing mice, stomach; intravenous, 0.74 MBq, 2 h post-injection): 9.92 %ID/g
O=C(O)CCCOc1ccc([18F])cc1-c1cc(-c2ccccc2C(F)(F)F)n(-c2ccccc2)n1 — tissue uptake (mice, small intestine; intravenous, 60 min): 2.16 ± 0.23 %ID/g
N#C[C@@H]1CCCN1C(=O)CNC(=O)c1ccnc2ccc(OCCCN3CCN(C(=O)CCc4ccc5c(c4)CN4CCN6CC(=O)[O][68Ga-]([O]C(=O)C4)([O]5)[O]c4ccc(CCC(=O)N5CCN(CCCOc7ccc8nccc(C(=O)NCC(=O)N9CCC[C@H]9C#N)c8c7)CC5)cc4C6)CC3)cc12 — tissue uptake (BALB/c nude mice, U-87 MG xenograft, brain; 1 h): 0.08 ± 0.01 %ID/g
CCCC[C@H](NC(=O)CNC(=O)CNC(=O)[C@H](CCCCNC(=O)[C@H](CCN)NC(=O)C(C)c1ccc(CC(C)C)cc1)NC(=O)CN1CCN(CC(=O)O)CCN(CC(=O)O)CCN(CC(=O)O)CC1)C(=O)N[C@H]1CC(=O)NCCCC[C@@H](C(N)=O)NC(=O)[C@H](Cc2c[nH]c3ccccc23)NC(=O)[C@H](CCCNC(=N)N)NC(=O)[C@@H](Cc2ccccc2)NC(=O)[C@H](Cc2c[nH]cn2)NC1=O (stereo partly shown) [lutetium-177 labelled] — tissue uptake (C57 mice, tumour-bearing, bone; 2 h): 1.01 ± 0.05 %ID/g
O=C(NCC1OC2CCC=CCCC2O1)c1ccc([18F])nc1 (stereo not shown) — tissue uptake (female BALB/c nude mice, LS174T tumour, bone; intravenous, 60 min, added: CC49-tetrazine 24 h before): 0.8 ± 0.4 %ID/g
N#C[C@@H]1CCCN1C(=O)CNC(=O)c1ccnc2ccc(OCCCN3CCN(C(=O)CCc4ccc(O)c(CN5CCN6CC(=O)[O][Al-]([18F])([O]C(=O)C5)[O]c5ccc(CCC(=O)N7CCN(CCCOc8ccc9nccc(C(=O)NCC(=O)N%10CCC[C@H]%10C#N)c9c8)CC7)cc5C6)c4)CC3)cc12 (stereo partly shown) — tissue uptake (BALB/c nude mice, U-87 MG xenograft, heart; 1 h, blocking, added: DOTA-FAPI-04 40 nmol/mouse co-injected): 2.03 ± 0.34 %ID/g

A few entries again:
Cc1cc(C)n(CCN(CCN)CCCCCCNC(=O)[C@@H](N)Cc2c[nH]c3ccccc23)n1.[99Tc+].[C-]#[O+].[C-]#[O+].[C-]#[O+] — tissue uptake (BALB/c nude mice A549 xenograft, tumor; intravenous, 15 min): 1.6 ± 0.68 %ID/g
COc1ccc2c(c1)C(C)(C)C(/C=C/C1=C(Oc3ccc(C(=O)NCCCCOc4cc(CN(Cc5ccccn5)Cc5ccccn5)cc(CN(Cc5ccccn5)Cc5ccccn5)c4)cc3)C(=C/C=C3/N(CCCCS(=O)(=O)[O-])c4ccc(OC)cc4C3(C)C)CCC1)=[N+]2CCCCS(=O)(=O)[O-].O=[N+]([O-])[O-].O=[N+]([O-])[O-].[99Tc+].[C-]#[O+].[C-]#[O+].[C-]#[O+].[Zn+2] — tissue uptake (BALB/c mice, S. aureus myositis, bone; 12 h post-injection): 0.86 %ID/g
